Measurements gathered from unrelated publications.
Lines come from different studies, so protocols differ. Values joined by “and” are separate records of one study, mostly repeats; a detail may differ.
Target: Ribosomal protein S6 kinase beta-2 (RPS6KB2, Homo sapiens, UniProt Q9UBS0)

The inhibition of `C=CC(=O)N1Cc2nc(-c3cc(-c4cc(Cl)cnc4Cl)c(F)cc3F)n(-c3ccncn3)c2C1` is reported as 4.2% (cell-free assay, inhibitor; 1 µM).
For `C=CC(=O)Nc1cccc(-c2cnc3[nH]cc(C(=O)NC(C)(C)C)c3n2)c1`, the inhibition was -7% and -8% (kinase activity, inhibitor, kinase panel; 0.1 µM).
With `CCn1cc(C(=O)O)c(=O)c2c(N)c(F)c(NC3CCCCC3)cc21` the inhibition was 25.9% (kinase activity; 0.1 µM, with: ATP at Km).
`NC(=O)[C@@H](O)C[C@H]1CCc2sc3ncnc(O[C@H]4CC[C@H](N5CCOCC5)CC4)c3c21` gave an inhibition of 10% (enzyme activity, inhibitor; 10 µM).
The remaining activity of `Nc1ncc(-c2cc(-c3cnn(CC(F)(F)F)c3)ncc2F)nc1C(=O)NC1CNCC(F)C1` (stereo not shown) is reported as 105% (enzyme activity; 1 µM; reference: DMSO control).
`COCC12C(=O)NC3C4(C(OC)CC1O)C1CC5(O)C(OC)C(O)C(OC(C)=O)(C1C5OC(=O)c1ccccc1)C3(O)C(OC)C24` (stereo not shown) has a remaining activity of 44% and 67% (kinase activity, inhibitor, ProQinase kinase profiling; 25 µM; reference: control).
Under “activity vs control”, `O=C(Cc1ccc(OCc2ccccc2)cc1)NC1(C(=O)O)CCN(C(=O)c2ccc(-c3cccc(Cl)c3)cc2)CC1` is recorded as 126% (enzyme activity, inhibitor; 10 µM).
The inhibition of `CN1CCN(Cc2ccc(-c3ccc(CO[C@H]4CCC[C@@H]4NC(=O)c4cc(-c5cnn(C)c5)cnc4N)cc3)cc2)CC1` is reported as 15% (enzyme activity, inhibitor; 0.1 µM).
The inhibition of `Cc1cccc(O[C@H]2CCC[C@@H](C(C)CNCc3ccncc3)C2)c1` (relative stereo) is reported as 0% (kinome profiling; 1 µM).
For `NC(=O)C[C@H]1CCc2sc3ncnc(O[C@H]4CC[C@H](N5CCOCC5)CC4)c3c21`, the inhibition was 4% (enzyme activity, inhibitor; 10 µM).

Some of these lines once more:
`NC(=O)[C@@H](O)C[C@H]1CCc2sc3ncnc(O[C@H]4CC[C@H](N5CCOCC5)CC4)c3c21` gave an inhibition of 10% (enzyme activity, inhibitor; 10 µM).
